Experimental data gathered from unrelated publications.
Protocols differ between the studies behind these lines. Several values in a cell are separate wells, animals, samples, runs or records. ± gives the spread as reported.

| Compound | assay | test system | setting | how to read | measurement | result |
| --- | --- | --- | --- | --- | --- | --- |
| O=C(O)[C@H]1O[C@@H](Oc2cc(-c3oc4cc(O)cc(O)c4c(=O)c3O)ccc2O)[C@H](O)[C@@H](O)[C@@H]1O |  | human plasma | median |  | plasma concentration | 17.3 nM |
| CC(C)[C@H](N)C(=O)NCCCS(=O)(=O)O |  | human both sexes, plasma | oral, 340 mg once daily days 8-14, day 14, fasted capsule |  | AUC(0-24) | 13800 ng·h/mL |
| N#Cc1ccc2c(c1)[C@H]1CCCN(C(=O)c3ccc4[nH]cnc4c3)[C@H]1C2 |  | human | 10 mg, end of trial | baseline: baseline | ACTH level change | 1 pmol/L |
| CC(C)C[C@H](NC(=O)[C@@H](Cc1c[nH]c2ccccc12)NC(=O)[C@H](Cc1ccc(O)cc1)NC(=O)[C@H](CO)NC(=O)[C@H](Cc1c[nH]c2ccccc12)NC(=O)[C@H](Cc1c[nH]cn1)NC(=O)[C@@H]1CCC(=O)N1)C(=O)N[C@@H](CCCNC(=N)N)C(=O)N1CCC[C@H]1C(=O)NCC(N)=O |  | Chinese girls, precocious puberty, plasma | intramuscular, 22.5 mg, 2160 h, month 3, mean |  | plasma concentration | 0.0552 ng/mL |
| O=C(O)c1c(O)cccc1O |  | human plasma | median, both sexes |  | plasma concentration | 5810 nM |
| C[C@@H]1CCO[C@H]2Cn3cc(C(=O)NCc4ccc(F)cc4F)c(=O)c(O)c3C(=O)N12 | population PK, post-hoc | children, 14 to <20 kg, plasma | oral, 15 mg dispersible tablet, steady state, geometric mean |  | AUC(0-24) | 37200 ng·h/mL |
| NC[C@H]1O[C@H](O[C@H]2[C@H](O)[C@@H](O[C@H]3O[C@H](CO)[C@@H](O)[C@H](N)[C@H]3O)[C@H](N)C[C@@H]2N)[C@H](N)C[C@@H]1O | starch gel membrane permeability | Gram-negative envelope surrogate | 200 µM, 20 min, pH 7.4 |  | amount permeated | 0.36 nmol |
| O=C(O)c1ccc(O)c(O)c1O |  | human plasma | median, both sexes |  | plasma concentration | 114 nM |
| Cc1cc(C)c(CNC(=O)c2cc(Cl)c3c(c2C)O[C@@](C)([C@H]2CC[C@H](N(C)C)CC2)O3)c(=O)[nH]1 |  | human relapsed/refractory NHL | oral, 200 mg once daily, onset after cycle 1 day 1 |  | febrile neutropenia grade ≥3 | 4.2% |
| Cc1nc(-c2cnc(NC(C)C)n(C)c2=O)ccc1Oc1ccnc(-c2cnn(C)c2)c1 |  | Beagle dog, male, plasma | oral, 3 mg/kg, crossover study, mean |  | apparent volume of distribution | 6.57 L/kg |
| CCC(C)n1ncn(-c2ccc(N3CCN(c4ccc(OCC5COC(Cn6cncn6)(c6ccc(Cl)cc6Cl)O5)cc4)CC3)cc2)c1=O (stereo not drawn) |  | human, plasma | oral, dose not given, day 17 predose, median |  | trough plasma concentration | 161 ng/mL |
| CCc1nc(C(N)=O)c(Nc2ccc(N3CCC(N4CCN(C)CC4)CC3)c(OC)c2)nc1NC1CCOCC1 |  | Japanese patients, plasma | oral, 120 mg, cycle 1 day 28, multiple doses, mean | baseline: single dose | accumulation ratio (AUC) | 7.97 |
| Oc1ccc(/C=C/c2cc(O)cc(O)c2)cc1 |  | male Wistar rats, plasma | oral, 10 mg/kg |  | tmax | 30 ± 7.2 min |
| O=C(COc1ccc(Cl)cc1)NC12CC(c3nnc([C@H]4C[C@@H](OC(F)(F)F)C4)o3)(C1)C2 | measured: catheter site pain | healthy humans, both sexes | oral, 200 mg, single ascending dose | baseline: subjects | treatment-emergent adverse events | 16.7% |
| CC1(C)CCC(CN2CCN(c3ccc(C(=O)NS(=O)(=O)c4ccc(NCC5CCOCC5)c([N+](=O)[O-])c4)c(Oc4cnc5[nH]ccc5c4)c3)CC2)=C(c2ccc(Cl)cc2)C1 |  | patients | oral, dose not given, steady state |  | median trough concentration (C0) | 0.879 µg/mL |
| Cn1cncc1[C@@](N)(c1ccc(Cl)cc1)c1ccc2c(c1)c(-c1cccc(Cl)c1)cc(=O)n2C |  | human, plasma | oral, 200 mg/m^2, cycle 1 first dose | baseline: AUC(0-inf) over AUC(0-12h) | accumulation index | 1.23 and 1.03 and 1.06 and 1.19 and 1.56 and 1.02 |
| O=C(O)[C@H]1O[C@@H](Oc2ccc3c(c2)OC[C@H](c2ccc(O)cc2)C3)[C@H](O)[C@@H](O)[C@@H]1O |  | human plasma | mean |  | plasma concentration | 794 nM |
| CNC(=O)c1ccc(-c2cnc3ncc(Cc4ccc5ncccc5c4)n3n2)cc1F |  | Japanese patients | oral, 400 mg, grade 3/4 |  | Haematuria dose reduction/interruption | 1% |
| O=C(c1cccnc1-c1ccncc1)N1CCC(O)(Cc2ccccc2)CC1 |  | healthy Japanese adults, plasma | oral, 300 mg twice daily, day 21 |  | AUClast | 2020 ng·h/mL |

| Compound | assay | test system | setting | how to read | measurement | result |
| --- | --- | --- | --- | --- | --- | --- |
| O=Cc1cc2c(cc1F)C(=O)N(C1CCC(=O)NC1=O)C2 (stereo not drawn) |  | cynomolgus monkey, male | oral, 0.3 mg/kg parent drug, 2 h |  | plasma concentration | 0.49 ng/mL |
| C=CC(=O)Nc1cc(Nc2nccc(-c3cn(C)c4ccccc34)n2)c(OC)cc1N(C)CCN(C)C | storage stability | human plasma | 5 h, -80 °C, high QC level |  | recovery | 93.4% |
| Cn1cc(Nc2nc(N)nc(-c3cccc(-n4ccc5cc(C6CC6)cc(F)c5c4=O)c3CO)n2)cn1 |  | healthy humans, fed | oral tablet, 300 mg twice daily (multiple dose), 14 (unit not given) | baseline: subjects | drug-related nausea incidence | 0% |
| CC(C)(C(=O)N1CCOc2c(C#N)cncc2C1)C(F)F | measured: Gastrointestinal disorders | human | oral, 15 mg twice daily, 14 days, multiple ascending dose |  | subjects with adverse event | 25% |
| CCCCOc1nc(N)c2c(n1)N(Cc1cccc(CN3CCCC3)c1)CC(=O)N2 | measured: Hallucinations | human | oral, 2 mg |  | drug-related TEAE incidence | 0% |
| Cl.[2H]C([2H])([2H])CC(=O)c1cnc(NC(=O)C2CC2)cc1Nc1cccc(-c2ncn(C([2H])([2H])[2H])n2)c1OC | geometric mean | human | oral, 20 mg twice daily, day 1, fed, liquid, multiple dose |  | Vz/F | 118 L |
| CCCCOC(=O)N1CCN(C(=O)[C@H](CP(=O)(O)O)NC(=O)c2cc(N3CC[C@H](OC)C3)nc(-c3ccccc3)n2)CC1 | measured: alkaline phosphatase | human, serum | 8 mg, 24 h post-dose |  | change from baseline | -0.5 ± 7.7 U/L |
| CN(Cc1cnc2nc(N)nc(N)c2n1)c1ccc(C(=O)N[C@@H](CCC(=O)O)C(=O)O)cc1 | lipid PAMPA | PBS | 10 µM, 16 h, pH 7.4, 25 °C |  | permeability (Pe) | < 0.00102 ×10⁻⁶ cm/s |
| CC(=O)O[C@H]1C[C@@]2(C)[C@@H](C[C@@H](O)[C@H]3[C@@]4(C)CC[C@@H](O)[C@@H](C)[C@@H]4CC[C@@]32C)/C1=C(\CCC=C(C)C)C(=O)O | starch gel membrane permeability | Gram-negative envelope surrogate | 200 µM, 45 min, pH 7.4 |  | amount permeated | 0.28 nmol |
| CNCc1ccc(-c2[nH]c3cc(F)cc4c3c2CCNC4=O)cc1 |  | human patients | oral, 600 mg twice daily, grade 4 |  | incidence of dyspnoea | 0% |
| CCn1cc(C(=O)O)c(=O)c2cc(F)c(N3CCNCC3)cc21 | starch gel membrane permeability | Gram-negative envelope surrogate | 200 µM, 60 min, pH 7.4 |  | amount permeated | 3.64 nmol |
| COc1ccc2[nH]c([S+]([O-])Cc3ncc(C)c(OC)c3C)nc2c1 (stereo not drawn) |  | healthy Chinese volunteers, plasma | oral, 20 mg, fed, CYP2C19 normal metabolizers |  | Cmax | 239 ± 194 ng/mL |
| COc1ccc2c(=O)n(C)c(-c3ccccc3)nc2c1 |  | Sprague-Dawley rat, male, stomach | oral, 30 mg/kg, 2 h | baseline: stomach over plasma | tissue/plasma ratio | 74.9 |
| C[C@@H](N)C1CCN(S(=O)(=O)c2cccc3cnccc23)CC1 |  | healthy volunteers, fasted, plasma | oral, 75 mg |  | duration of quantifiable plasma levels | ≤ 4 h |
| CCc1cc(C(=O)NC)c2nccc(N3CCc4c(cc(Cn5ccnc5)cc4-c4cn(C)nc4C(F)(F)F)C3=O)c2c1 |  | Sprague Dawley rat, male, plasma | oral, 100 mg/kg once daily, 7 days, toxicokinetic satellite group |  | AUC extrapolated fraction | 0% |
| NC1(C(=O)N[C@@H](CCO)c2ccc(Cl)cc2)CCN(c2nc[nH]c3nccc2-3)CC1 |  | metastatic CRPC patients | 400 mg b.i.d., grade 3 to 4, treatment-related, added: enzalutamide 160 mg daily |  | incidence of Neutropenia | 0% |
| Cc1nc2ccc(OCc3ccc(C(F)(F)F)cc3)cc2[nH]1 |  | male Balb/c mice, liver | oral, 10 mg/kg, 4 h | baseline: tissue over plasma | tissue/plasma ratio | 11.9 ± 1.6 |
| COc1ncc(-c2nc3c(n2C(C)C)[C@H](c2ccc(Cl)cc2)N(c2cc(Cl)cn(C)c2=O)C3=O)c(OC)n1 |  | human patients, plasma | oral, 12.5 mg, high-dose arm, cycle 1 day 1 |  | AUC(0-t) geometric mean | 1480 ng·h/mL |
| CN(C)CCCNC(=O)/C(=C/CCCCC(=O)NO)COc1cccc2ccccc12 |  | human | iv, 250 mg/m2, day 1, single dose, mean |  | MRT(0-inf) | 6.79 h |

| Compound | assay | test system | setting | how to read | measurement | result |
| --- | --- | --- | --- | --- | --- | --- |
| C[C@@H]1CN(c2c(F)c(N)c3c(=O)c(C(=O)O)cn(C4CC4)c3c2F)C[C@H](C)N1 | starch gel membrane permeability | Gram-negative envelope surrogate | 200 µM, 45 min, pH 7.4 |  | amount permeated | 1.1 nmol |
| Cc1nc2cccc(OCC(C)(C)C(=O)NC(C)C)c2c(N)c1C(=O)O |  | Sprague-Dawley rat, plasma | oral, 30 mg/kg, day 1 | baseline: female over male | AUC(0-last) ratio | 1.05 ± 0.26 |
| Cc1noc(C)c1-c1cc(C(O)(c2ccccn2)c2ccccn2)c2nc(C3CC3)[nH]c2c1 |  | human, plasma | oral, 6 mg, cycle 1 day 8, monotherapy |  | AUCtau | 9370 ng·h/mL |
| CCOc1c([C@H](C)n2nc(C)c3c(N)ncnc32)cc(Cl)c(F)c1[C@@H]1CNC(=O)C1 | measured: QRS >100 to ≤110 ms | previously treated B-cell malignancy | oral, 20 mg once daily, baseline below thresholds |  | ECG observations | 4.4% |
| Cc1c2oc3c(C)ccc(C(=O)N[C@@H]4C(=O)N[C@H](C(C)C)C(=O)N5CCC[C@H]5C(=O)N(C)CC(=O)N(C)[C@@H](C(C)C)C(=O)O[C@@H]4C)c3nc-2c(C(=O)N[C@@H]2C(=O)N[C@H](C(C)C)C(=O)N3CCC[C@H]3C(=O)N(C)CC(=O)N(C)[C@@H](C(C)C)C(=O)O[C@@H]2C)c(N)c1=O | LC-MS | children with cancer, plasma | dose not given, 1 h |  | median plasma concentration | 6.3 µg/L |
| O=C(Nc1nc2cccc(-c3ccc(CN4CCS(=O)(=O)CC4)cc3)n2n1)C1CC1 | measured: musculoskeletal disorders | human rheumatoid arthritis patients | oral, 75 mg once daily, 4 weeks, regardless of relatedness |  | treatment-emergent adverse events | 0% |
| O=C(O)CNC(=O)c1cccc(O)c1 |  | human plasma | median |  | plasma concentration | 6490 nM |
| Cc1ncsc1-c1ccc(CNC(=O)[C@@H]2C[C@@H](O)CN2C(=O)[C@@H](NC(=O)CCCCCCCCCCCC(=O)NCCCCC#Cc2cccc(-c3nn(-c4nc(C(=O)O)cs4)c(CC4CC4)c3Cc3ccc(S(N)(=O)=O)cc3)c2)C(C)(C)C)cc1 |  | Swiss albino mice | intraperitoneal, 5 mg/kg |  | tolerability | not toxic |
| O=C(O)CCC(=O)O.[2H]C([2H])([2H])Oc1cc(C)c2[nH]ccc2c1CN1CC[C@@H](C2CC2)C[C@H]1c1ccc(C(=O)O)cc1 |  | healthy Chinese subjects | 200 mg, single ascending dose |  | TEAE decreased neutrophil | 0% |
| Cc1ccc([C@@H]2O[C@H](CO)[C@@H](O)[C@H](O)[C@H]2O)cc1Cc1ccc(-c2ccc(F)cc2)s1 | measured: inorganic phosphorus | Japanese type 2 diabetes patients | 200 mg, day 17, 24 h urine collection | baseline: baseline | urinary phosphate excretion change | 49.9 mg |
| O=C(O)[C@H]1O[C@@H](Oc2cc(O)c3c(=O)c(O)c(-c4ccc(O)c(O)c4)oc3c2)[C@H](O)[C@@H](O)[C@@H]1O |  | human plasma | mean |  | plasma concentration | 707 nM |
| CCO[C@H]1CCN(Cc2c(OC)cc(C)c3[nH]ccc23)[C@H](c2ccc(C(=O)O)cc2)C1 |  | PNH patients, active haemolysis | oral, 100 mg, 8 weeks, treatment |  | incidence musculoskeletal chest pain | 14.3% |
| Cc1cccc(CNC(=O)c2cn(CCNC(=O)c3ccccc3S)c3cc4c(cc3c2=O)OC(F)(F)O4)n1 |  | Sprague-Dawley rat, male, whole blood | intramuscular, 3 mg/kg of parent drug |  | Tmax | 23.4 ± 18.6 min |
| CCc1cc2ncc(CN3CCN(c4ccc(C(=O)NC)nc4)CC3)cc2[nH]c1=O |  | female rat, blood | oral, 50 mg/kg/day, 4 weeks | baseline: vehicle control | Neutrophils count ratio | 0.53 |
| CCN1/C(=C/C(C)=O)Sc2ccc(F)cc21 |  | cynomolgus monkey | oral, 10 mg/kg, 4 h post-dose |  | mean blood pressure | 94 ± 5 mmHg |
| COc1cc(C=CC(=O)O)ccc1OS(=O)(=O)O |  | human plasma | median |  | plasma concentration | 1170 nM |
| Cc1ccc(C(=O)N(CCCN)C(c2nc3snc(C)c3c(=O)n2Cc2ccccc2)C(C)C)cc1 (stereo not drawn) |  | human patients | intravenous, 2 mg/day |  | grade ≥3 dysphagia patients | 0% |
| COc1ccc(CCC(=O)O)cc1O[C@@H]1O[C@H](C(=O)O)[C@@H](O)[C@H](O)[C@H]1O |  | human plasma | median |  | plasma concentration | 304 nM |
| COc1ccc2nc([S+]([O-])Cc3ncc(CO)c(OC)c3C)[nH]c2c1 (stereo not drawn) |  | human, dried plasma spots | 4 h, added: fluvoxamine and voriconazole | baseline: inhibited over baseline | R/S enantiomer ratio fold change | 0.34 |
